Results pooled from the literature.
Compare with care: the assays were run in different laboratories. Numbers after ± are the reported error.
Cell line: A-375

For CCn1cc(-c2cc(Cn3ccoc3=N)cc3c2CCN([C@@H](C)c2cc(OC)ccn2)C3=O)c(C(F)(F)F)n1, the EC50 was > 30 µM (cell growth, inhibitor; 120 h).
O=C(NOC[C@H](O)CO)c1ccc(F)c(F)c1Nc1ccc(I)cc1F gave a viability of 12.8% (5 µM, 72 h).
With COc1cccc2c1C(=O)c1c(O)c3c(c(O)c1C2=O)C[C@@](O)(C(=O)CO)C[C@@H]3O[C@H]1C[C@H](N)[C@H](O)[C@H](C)O1 the EC50 was 0.007 ± 0.0026 µM (cell viability, MTT; 72 h).
The viability of COc1cc2ncnc(Nc3ccc(Oc4ccccc4)cc3C)c2cc1OC is reported as 91.7% (0.3 µM, 72 h).
With O=C(NN=Cc1ccc([N+](=O)[O-])s1)C1CC(=O)N(c2ccc(F)cc2F)C1 (stereo not shown) the EC50 was 6.4 ± 1.1 µM (cell viability, MTT; 72 h).
The GI50 of O=C(/C=C/C=C/C=C/C1CCCCC1)NC1=C[C@@](O)(/C=C/C=C/C=C/C(=O)NC2=C(O)CCC2=O)[C@@H]2O[C@@H]2C1=O is reported as 20 µM (cell growth, CellTiter-Glo; 78 h).
Cn1cnc2c(F)c(Nc3ccc(Br)cc3F)c(C(=O)NOCCO)cc21 has a viability of 87.2% (0.07813 µM, 72 h).
For Cc1cnc(NC2CCOCC2)nc1-n1cnc(C(=O)NC(CN)c2cc(F)cc(Cl)c2)c1 (stereo not shown), “S phase cells” read 4.6% (flow cytometry; 1 µM, 48 h).
O=C(NN=Cc1ccc(Cl)cc1)C1CC(=O)N(c2ccc(F)cc2F)C1 (stereo not shown) has an EC50 of 36.6 ± 11 µM (cell viability, MTT; 72 h).
For COc1cnc2cccc(N3CCc4c(cc(Cn5ccnc5C)cc4-c4cn(C)nc4C(F)(F)F)C3=O)c2c1, the EC50 was > 30 µM (cell growth, inhibitor; 120 h).
